Measured values of several laboratories.
A part holds a random share of what one study measured.

Set 1
Target: Interferon regulatory factor 3, full length, phosphomimetic (IRF3, Homo sapiens, UniProt Q14653, residues 1-427, S386D/S396D/S398D/S402D/T404D/S405D)
Sequence of UniProt Q14653 (whole entry, unmodified, looked up): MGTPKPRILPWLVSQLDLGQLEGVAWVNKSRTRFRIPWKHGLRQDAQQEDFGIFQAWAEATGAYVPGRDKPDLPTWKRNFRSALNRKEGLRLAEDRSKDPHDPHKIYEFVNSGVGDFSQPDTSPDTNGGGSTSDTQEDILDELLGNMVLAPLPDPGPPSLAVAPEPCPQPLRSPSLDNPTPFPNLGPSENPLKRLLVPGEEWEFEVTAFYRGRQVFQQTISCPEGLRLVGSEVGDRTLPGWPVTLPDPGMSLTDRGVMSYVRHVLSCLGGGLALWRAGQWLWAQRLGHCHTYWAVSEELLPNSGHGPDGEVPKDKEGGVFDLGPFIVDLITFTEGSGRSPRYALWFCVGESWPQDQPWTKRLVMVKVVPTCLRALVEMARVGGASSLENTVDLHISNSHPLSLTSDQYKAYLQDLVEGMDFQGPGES
Method: protein-binding microarray
Molecule type: double-stranded DNA, one strand shown
Medium: in vitro
Tested at: 2540 nM top
Setting: 60-bp whole probe
Together with: salmon DNA 0.4 mg/ml
Reference: random background probes
Reading: higher = stronger binding
Constant ends, left off below: GCCTAGCAC … GTCTTGATTCGCTTGACGCTGCTG
Under “fitted relative affinity”, `GACGAACTGCGGACTGGAGACGTGCTA` is recorded as -0.428 z-score.
Under “fitted relative affinity”, `TAAGGTTTCGGACTGGGTTAGTGCTAG` is recorded as 4.14 z-score.
Under “fitted relative affinity”, `TTAGAGCTCAGACTGGATTAGTGCTAG` is recorded as -0.468 z-score.
`GACGGACTCGGGACTGGGGACGTGCTA` — result for “fitted relative affinity”: -0.522 z-score.
`TTGGATTTCAGTTTCGATTAGTGCTAG` — result for “fitted relative affinity”: 5.26 z-score.
Under “fitted relative affinity”, `TTAGGTAGCGGTTTCGGTTAGTGCTAG` is recorded as 5.18 z-score.
`TCATCTCTGGACTGTGTGACTGTGCTA`: “fitted relative affinity” 0.451 z-score.
Under “fitted relative affinity”, `TTAGATTTCGGCACTGGATTAGTGCTA` is recorded as 0.476 z-score.
`GACGGTTGCGACTATCGGGACGTGCTA`: “fitted relative affinity” 0.139 z-score.
For `GACGGTTTCGGGCTGGGGACGTGCTAG`, “fitted relative affinity” read 2.98 z-score.
`TTATATCTCAGTTTCGATTAGTGCTAG`: “fitted relative affinity” 3.87 z-score.
For `CTGTTTTTGCTTTCCTTCTTGTGCTAG`, “fitted relative affinity” read 6.27 z-score.
For `GACGGTTTCCTACTACTGACGTGCTAG`, “fitted relative affinity” read 5.71 z-score.
Under “fitted relative affinity”, `GACGACTTCAGTATCGAGACGTGCTAG` is recorded as 0.182 z-score.
`TGGAACCAGCGAACGAGCGGGTGCTAG` — result for “fitted relative affinity”: -0.704 z-score.
`TTTTCATTATTGTGTCAACTTGTGCTA` — result for “fitted relative affinity”: 2.96 z-score.
For `GACGATTCTAGTTTCGAGACGTGCTAG`, “fitted relative affinity” read 2.8 z-score.
For `TCCCCGGAGCTGGACAGAAGGTGCTAG`, “fitted relative affinity” read -0.617 z-score.

Set 2
Target: Sal-like protein 4, full length isoform B (SALL4, Homo sapiens, UniProt Q9UJQ4-2, residues 1-616)
Method: universal PBM
Molecule type: double-stranded DNA, one strand shown
Medium: in vitro
Tested at: not given
Setting: 8-mer, flanks averaged, mean of replicates
Reading: higher = stronger binding
With `ATCCATTG` the E-score was 0.131.
`CGAGCGTC` gave an E-score of -0.246.
With `ATGCCATG` the E-score was 0.0713.
`AGCTGAAG` gave an E-score of -0.0998.
For `TGTACAAA`, the E-score was 0.289.
For `CTATAAGA`, the E-score was 0.159.
`CTAACTAG` has an E-score of 0.123.
`ATCTTCAG` gave an E-score of 0.0625.
For `TGCACCCA`, the E-score was -0.128.
`ACTTTAGG` gave an E-score of 0.0401.
With `CCGATATC` the E-score was -0.0166.
For `CTCCGAAC`, the E-score was -0.268.
For `GCCACGGA`, the E-score was -0.219.
The E-score of `CGCCGGCC` is reported as -0.405.
For `CACTGCTG`, the E-score was -0.198.
With `AGCCGCAT` the E-score was -0.15.
The E-score of `ACACCGCG` is reported as -0.33.
For `GCTCATCC`, the E-score was -0.206.
The E-score of `ACTATGCC` is reported as 0.152.
The E-score of `ACTACGGA` is reported as -0.0472.
The E-score of `CGTAGAAG` is reported as 0.0309.
`AATCAACA` gave an E-score of 0.216.
For `CGTATCCA`, the E-score was -0.00772.
For `ATGCAACA`, the E-score was 0.146.
For `ACCCACAA`, the E-score was 0.0163.

Set 3
Target: Centromere-binding protein 1, full length, N-terminal tag (CBF1, Saccharomyces cerevisiae, UniProt P17106, residues 1-351)
Sequence of UniProt P17106 (whole entry, looked up): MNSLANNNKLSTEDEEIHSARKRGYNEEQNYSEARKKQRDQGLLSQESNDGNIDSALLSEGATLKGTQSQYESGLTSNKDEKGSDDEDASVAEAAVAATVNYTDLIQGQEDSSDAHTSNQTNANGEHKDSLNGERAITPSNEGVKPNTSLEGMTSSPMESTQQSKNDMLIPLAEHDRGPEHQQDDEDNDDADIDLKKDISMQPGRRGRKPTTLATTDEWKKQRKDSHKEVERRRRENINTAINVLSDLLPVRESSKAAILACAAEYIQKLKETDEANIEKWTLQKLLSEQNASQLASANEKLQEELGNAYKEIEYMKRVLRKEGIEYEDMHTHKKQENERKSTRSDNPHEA
Method: protein-binding microarray
Molecule type: double-stranded DNA, one strand shown
Medium: in vitro
Tested at: 0.8 µM
Setting: whole 60-bp probe, no competitor
Reading: higher = stronger binding
`CTAACTCATTTGTTTCGTGCGCTTTCCTATTGCTTCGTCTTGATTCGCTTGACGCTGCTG` gave a fluorescence intensity of 499 a.u.
`CTAACCACACACTACGTCACAACACAACAAGACTTCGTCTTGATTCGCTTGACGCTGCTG` has a fluorescence intensity of 588 a.u.
`CTAGTAACAGGACAGCTGACAATTGCTAAGTTATTCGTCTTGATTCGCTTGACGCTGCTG` gave a fluorescence intensity of 611 a.u.
`CTAATCGAGTAATTTCCGCTGATGTATAATATATTCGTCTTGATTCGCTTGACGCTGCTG` has a fluorescence intensity of 524 a.u.
The fluorescence intensity of `GAAAATGTAATTTCTCACGTGTTCCTTTAGCAGTAGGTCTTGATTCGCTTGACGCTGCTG` is reported as 5050 a.u.
For `GAAAAAAAATAAAGCATCAGAATCAATTTCTTGTAGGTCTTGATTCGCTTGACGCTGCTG`, the fluorescence intensity was 515 a.u.
With `GAATGCATGGATTGTGCTGATGTAAGCTGCACGTAGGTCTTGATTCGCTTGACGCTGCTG` the fluorescence intensity was 516 a.u.
For `GAAAAGCGACATTACCTCGTGTATTTAGTATTTTAGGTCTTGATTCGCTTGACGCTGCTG`, the fluorescence intensity was 561 a.u.
With `GAAGTATAAGGCTACGTGGTGGCCTTGAATTCGTAGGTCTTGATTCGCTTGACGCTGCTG` the fluorescence intensity was 478 a.u.
With `CTACTATGACCTGTTCACGTGGCCAAATGTTCTTTCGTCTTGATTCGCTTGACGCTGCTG` the fluorescence intensity was 4430 a.u.
For `GAACACATATATCATCACCAATTACCATTTTCATAGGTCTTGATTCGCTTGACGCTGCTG`, the fluorescence intensity was 547 a.u.
The fluorescence intensity of `CTAAGGAACAACCATCACCCCACACTTTTATCTTTCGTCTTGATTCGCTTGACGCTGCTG` is reported as 551 a.u.
With `GAAGGCGTTCATCATCACGCCAACATATTTCTTTAGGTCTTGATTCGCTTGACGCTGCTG` the fluorescence intensity was 682 a.u.
`CTAGGGTAGTTAGTGCACGCGGGGAACTACCTCTTCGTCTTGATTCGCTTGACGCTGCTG` has a fluorescence intensity of 518 a.u.
`CTACATTGCTAGTGTCACGTTCAGAAAACGAGATTCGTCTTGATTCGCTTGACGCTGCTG` gave a fluorescence intensity of 1430 a.u.
The fluorescence intensity of `GAAACCCAGCTGGGACATGTGAATAAGTCTCAATAGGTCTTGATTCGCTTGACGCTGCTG` is reported as 660 a.u.
The fluorescence intensity of `CTACGTTGCTAACATCATGTTAGTCTGACAAGTTTCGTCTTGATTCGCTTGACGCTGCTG` is reported as 555 a.u.
`TGTACGAAGCTATCCCACGTTGTTATAGTAGTTAGGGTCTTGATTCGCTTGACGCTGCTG` has a fluorescence intensity of 548 a.u.
`TGTACGAAGCTATGCATGACCACTATAGTAGTTAGGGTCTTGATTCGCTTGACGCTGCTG` gave a fluorescence intensity of 612 a.u.

Set 4
Target: Ras GTPase-activating protein-binding protein 1, full length (G3BP1, Homo sapiens, UniProt Q13283)
Sequence of UniProt Q13283 (whole entry, looked up): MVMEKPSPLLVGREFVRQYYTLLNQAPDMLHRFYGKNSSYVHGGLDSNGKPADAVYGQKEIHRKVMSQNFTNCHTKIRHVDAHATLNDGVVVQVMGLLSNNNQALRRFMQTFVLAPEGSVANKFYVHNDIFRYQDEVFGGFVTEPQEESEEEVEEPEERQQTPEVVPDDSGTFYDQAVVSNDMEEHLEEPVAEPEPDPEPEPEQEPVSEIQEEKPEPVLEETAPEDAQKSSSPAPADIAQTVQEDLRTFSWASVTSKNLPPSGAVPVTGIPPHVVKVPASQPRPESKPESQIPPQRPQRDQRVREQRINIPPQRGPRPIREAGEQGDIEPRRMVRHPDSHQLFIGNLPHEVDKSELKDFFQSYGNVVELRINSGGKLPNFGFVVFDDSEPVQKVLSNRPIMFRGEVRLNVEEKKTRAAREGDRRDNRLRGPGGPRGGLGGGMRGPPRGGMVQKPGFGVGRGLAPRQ
Method: RNA Bind-n-Seq
Molecule type: RNA
Medium: in vitro
Tested at: 200 nM
Setting: whole 134-nt RNA, ends assumed
Together with: 150 mM KCl
Reference: input library
Reading: higher = stronger binding
For `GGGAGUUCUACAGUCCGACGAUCUGGCCCUGGUGGCAUGCGGGGAGGAAGAGGUGGCCUCAUGGAUCGUGGUGGUCCAGGUGGAAUGUUCAGAGGUGGCCGUGGUGGAGACAGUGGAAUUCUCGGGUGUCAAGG`, the log2 enrichment was 0.0227.
For `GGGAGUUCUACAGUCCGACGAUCUAAUUUUAGAGGAGGAUCUGAUGGAUAUGGCAGUGGACGUGGAUUUGGGGAUGGCUAUAAUGGGUAUGGAGGAGGACCUGGAGGUGGCAAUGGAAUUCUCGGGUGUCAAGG`, the log2 enrichment was 0.312.
The log2 enrichment of `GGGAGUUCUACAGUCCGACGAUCCCUGUGCUACACAUCGUAUGUACCGAAUCGGGGUUUUUUUGGGGAAAGGGGAAAAAGGGGAAAGUAUUAUGUUACGCCGUUCGGAUCUGCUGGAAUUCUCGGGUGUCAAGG` is reported as 0.194.
`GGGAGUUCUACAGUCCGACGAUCCUGUGCUACACAUCGUAUGUACCGAAUCGGGGCCCCCCCGGGCCCCCCCGGCCCCCCCGGGAAAGUAUUAUGUUACGCCGUUCGGAUCUGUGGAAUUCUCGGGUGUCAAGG` gave a log2 enrichment of -0.697.
The log2 enrichment of `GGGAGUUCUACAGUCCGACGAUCCUCAAGUCCUGUGCUACACAUCGUAUGUACCGAAUCGGGGAGGGGAGGAGGGGAAAGUAUUAUGUUACGCCGUUCGGAUCUGCACUUCCAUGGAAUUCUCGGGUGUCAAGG` is reported as 1.23.
For `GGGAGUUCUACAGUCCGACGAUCAGUCCUGUGCUACACAUCGUAUGUACCGAAUCGGGGUGGGGAGGGGUUUUUUUGGGGAAAGUAUUAUGUUACGCCGUUCGGAUCUGCACUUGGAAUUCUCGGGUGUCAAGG`, the log2 enrichment was 0.669.
The log2 enrichment of `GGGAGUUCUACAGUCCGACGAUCCCUGUGCUACACAUCGUAUGUACCGAAUCGGGGAAAAAAAGGGGAAAGGGGAAAAAGGGGAAAGUAUUAUGUUACGCCGUUCGGAUCUGCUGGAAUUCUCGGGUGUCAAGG` is reported as 0.142.
`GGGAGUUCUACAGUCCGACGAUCCCUGUGCUACACAUCGUAUGUACCGAAUCGGGGCCCCCCGGCCCCCCGGGGCCCCCCGGGAAAGUAUUAUGUUACGCCGUUCGGAUCUGCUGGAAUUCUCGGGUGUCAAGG` has a log2 enrichment of -0.327.
For `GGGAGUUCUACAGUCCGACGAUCGUCCUGUGCUACACAUCGUAUGUACCGAAUCAAAUUUUUUUAAAUUUAAAUUUUUAAAAAAGUAUUAUGUUACGCCGUUCGGAUCUGCACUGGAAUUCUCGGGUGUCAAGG`, the log2 enrichment was -1.45.

For quick reference, copied from above (set 3):
The fluorescence intensity of `GAAAATGTAATTTCTCACGTGTTCCTTTAGCAGTAGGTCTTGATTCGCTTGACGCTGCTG` is reported as 5050 a.u.
For `GAAAAAAAATAAAGCATCAGAATCAATTTCTTGTAGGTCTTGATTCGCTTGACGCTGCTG`, the fluorescence intensity was 515 a.u.
With `GAATGCATGGATTGTGCTGATGTAAGCTGCACGTAGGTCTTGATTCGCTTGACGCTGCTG` the fluorescence intensity was 516 a.u.
For `GAAAAGCGACATTACCTCGTGTATTTAGTATTTTAGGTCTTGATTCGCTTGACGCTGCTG`, the fluorescence intensity was 561 a.u.
